Published values collected from several papers.
Protocols differ between the studies behind these lines.

`NC(=O)[C@H](Cc1ccccc1)N[11C](=O)OCc1ccccc1`: “time to maximum uptake” 3 min (dynamic PET; Wistar rat, male, brain; intravenous, 13.1 MBq).
For `OC1CCN(c2ncc(-c3cc4ccc([18F])cc4[nH]3)cn2)CC1`, “time to peak radioactivity” read ≤ 5 min (dynamic PET; Sprague-Dawley rats, both sexes, whole brain; intravenous, dose not given).
Under “time quantifiable in plasma”, `C[C@]12CC[C@H](OC(=O)NC3CCNCC3)C[C@H]1CC[C@@H]1[C@@H]2CC[C@]2(C)[C@@H](c3ccc(=O)oc3)CC[C@]12O` is recorded as ~12 h (male Sprague-Dawley rats, plasma; intravenous, 5 mg/kg).
Under “time to undetectable level”, `C[C@@H]1CC[C@H]2[C@@H](C)CO[C@@H]3O[C@@]4(C)CC[C@@H]1[C@]32OO4` is recorded as 2 h (Sprague-Dawley rat, male, blood; intravenous, 5 mg/kg).
`COc1cc(-c2cncc(-c3ccc(N4CCNCC4)cc3)c2C)cc(OC)c1O[11CH3]`: “time to peak brain SUV” ≤ 1 min (dynamic PET; Sprague-Dawley rats male, whole brain; intravenous).
For `CC(C)C[C@H](NC(=O)[C@@H]1CSSC[C@@H]2NC(=O)[C@H](CC(C)C)NC(=O)[C@H](CCC(=O)O)NC(=O)[C@@H](NC(=O)[C@H](CC(=O)O)NC(=O)[C@H](CC(=O)O)NC(=O)[C@@H](N)CC(N)=O)CSSC[C@H](NC(=O)[C@H](C)NC(=O)[C@H](C(C)C)NC(=O)[C@H](CC(N)=O)NC(=O)[C@H](C(C)C)NC2=O)C(=O)N[C@@H]([C@@H](C)O)C(=O)NCC(=O)N1)C(=O)O`, “time to appearance in urine” read ≤ 20 min (GC-C stimulating activity, T84 cell bioassay; anesthetized rat, urine; intravenous infusion, dose not given; reference: start of infusion).
`COc1cc(-c2cncc(-c3ccc(C4CCN([11CH3])CC4)cc3)c2C)cc(OC)c1OC` — result for “time to peak brain SUV”: ≤ 1 min (dynamic PET; Sprague-Dawley rats male, whole brain; intravenous).
Under “time to peak radioactivity”, `[18F]c1ccc2cc(-c3cnc(N4CCOCC4)nc3)[nH]c2c1` is recorded as ≤ 5 min (dynamic PET; Sprague-Dawley rats, both sexes, whole brain; intravenous, dose not given).

A few entries again:
Under “time quantifiable in plasma”, `C[C@]12CC[C@H](OC(=O)NC3CCNCC3)C[C@H]1CC[C@@H]1[C@@H]2CC[C@]2(C)[C@@H](c3ccc(=O)oc3)CC[C@]12O` is recorded as ~12 h (male Sprague-Dawley rats, plasma; intravenous, 5 mg/kg).
